# Measurements from different studies.
# Every numbered part comes from another study and shows a few of its results, in no order. Substitutions count along the parent as printed.

# Set 1 — technique: RNA Bind-n-Seq; form: RNA; matrix: in vitro; tested at: 200 nM; setting: whole 134-nt RNA, ends assumed; added: 150 mM LiCl; relative to: input library; direction: higher = stronger binding; all molecules: 7-deaza-guanosine replaces G
# Target: Ras GTPase-activating protein-binding protein 1, full length (G3BP1, Homo sapiens, UniProt Q13283)
# Sequence of UniProt Q13283 (whole entry, looked up): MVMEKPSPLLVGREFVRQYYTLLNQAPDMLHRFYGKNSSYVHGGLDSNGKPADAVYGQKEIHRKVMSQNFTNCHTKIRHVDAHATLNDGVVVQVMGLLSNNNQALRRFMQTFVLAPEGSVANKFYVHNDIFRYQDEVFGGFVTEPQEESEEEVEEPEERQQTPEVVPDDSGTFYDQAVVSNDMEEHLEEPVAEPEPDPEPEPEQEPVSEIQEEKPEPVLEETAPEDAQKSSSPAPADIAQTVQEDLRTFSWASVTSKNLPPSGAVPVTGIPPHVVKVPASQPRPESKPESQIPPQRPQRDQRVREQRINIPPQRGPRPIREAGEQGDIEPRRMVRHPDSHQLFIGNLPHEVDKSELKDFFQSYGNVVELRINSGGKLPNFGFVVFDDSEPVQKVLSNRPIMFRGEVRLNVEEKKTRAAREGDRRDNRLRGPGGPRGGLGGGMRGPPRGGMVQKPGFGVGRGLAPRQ
Oligonucleotide,log2 enrichment
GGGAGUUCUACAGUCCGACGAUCUCAAGUCCUGUGCUACACAUCGUAUGUACCGAAUCGGAAAAAGGUGGAAAAAGGAAAGUAUUAUGUUACGCCGUUCGGAUCUGCACUUCCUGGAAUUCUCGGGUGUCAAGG,-0.285
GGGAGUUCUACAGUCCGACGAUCCCUCAAGUCCUGUGCUACACAUCGUAUGUACCGAAUCGGGUGGGGUGGGUGGAAAGUAUUAUGUUACGCCGUUCGGAUCUGCACUUCCAGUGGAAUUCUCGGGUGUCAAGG,-0.102
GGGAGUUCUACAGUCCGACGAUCUGGGAGGUGGAUUUUGUUUAUUUUUUUAGCUCCUUUCCAGGGGUGGGAAUUUUUUUUUAAUAUGUGUCAUGAAUAAAGUUGUUUUUGAAAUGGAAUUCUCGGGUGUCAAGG,0.146
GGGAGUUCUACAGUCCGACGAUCGUCCUGUGCUACACAUCGUAUGUACCGAAUCGGGAAAAAGGAAAAAGGGGAAAAAGGGAAAGUAUUAUGUUACGCCGUUCGGAUCUGCACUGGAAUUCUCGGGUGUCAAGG,-0.0704
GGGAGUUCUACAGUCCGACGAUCUGUGCUACACAUCGUAUGUACCGAAUCGGGUUUUUUUGGGGUUUUUUUGGGGUUUUUUUGGGAAAGUAUUAUGUUACGCCGUUCGGAUCUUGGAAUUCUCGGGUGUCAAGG,1.73
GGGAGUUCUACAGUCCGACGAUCUGGCCCUGGUGGCAUGCGGGGCGGAAGAGGUGGCCUCAUGGAUCGUGGUGGUCCCGGUGGAAUGUUCAGAGGUGGCCGUGGUGGAGACAGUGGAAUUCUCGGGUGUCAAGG,0.856
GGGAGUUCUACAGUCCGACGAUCGCAGGAAGUAAAAACAAAUGGCAAUGCUUCGGAUAGUGGCAGGGGUGGGGGUUGCUAAGGAAAGGGUGGGAUGGGAGUGGGUAAAGAGUUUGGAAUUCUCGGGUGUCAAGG,0.263
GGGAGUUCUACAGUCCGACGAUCCUCAAGUCCUGUGCUACACAUCGUAUGUACCGAAUCGGUUGGGGUUGGUUGGGAAAGUAUUAUGUUACGCCGUUCGGAUCUGCACUUCCAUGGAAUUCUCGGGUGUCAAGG,0.354
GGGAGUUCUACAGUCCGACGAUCUCCUGUGCUACACAUCGUAUGUACCGAAUCGGAAAAAAGGGAAAAAAGGGGAAAAAAGGAAAGUAUUAUGUUACGCCGUUCGGAUCUGCAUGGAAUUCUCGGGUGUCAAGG,-0.532
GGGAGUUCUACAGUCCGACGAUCUCCUGUGCUACACAUCGUAUGUACCGAAUCGGGGUUUGGGGAAAGGGGAAAAAAAGGGGAAAGUAUUAUGUUACGCCGUUCGGAUCUGCAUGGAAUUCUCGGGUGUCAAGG,-0.0829
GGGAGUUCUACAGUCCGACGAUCCUGUGCUACACAUCGUAUGUACCGAAUCGGGGUUUUUUUGGGGAAAAAAAGGGGAAAGGGGAAAGUAUUAUGUUACGCCGUUCGGAUCUGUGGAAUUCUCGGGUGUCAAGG,-1.1

# Set 2 — technique: protein binding microarray; form: double-stranded DNA, one strand shown; matrix: in vitro; tested at: not given; relative to: not given; direction: higher = stronger binding
# Target: Histone acetyltransferase KAT6A, winged helix 1, GST fusion (KAT6A, Homo sapiens, UniProt Q92794, residues 1-85)
# Setting: 8-mer, flanks averaged, mean of 2 arrays, mostly near background
# Residues (chain): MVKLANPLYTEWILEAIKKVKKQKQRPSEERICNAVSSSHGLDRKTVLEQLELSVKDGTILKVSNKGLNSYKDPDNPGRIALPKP
Oligonucleotide,E-score
ACTCGGTA,-0.102
GCATCCAA,-0.161
CATTTACC,-0.0804
ATCGAAAT,-0.0319
ATCGGCTG,0.0175
GCGACTAA,0.0497
GAACTGGC,0.00368
AGAAAATA,-0.213
GTGCAAAC,0.0617
GATGATAC,-0.0722
AAGCGTGT,0.14
ACTCCGTC,0.177
AAACGCGC,0.372
AGGGCATG,-0.158
AGCTCCGG,-0.0813
AACTTCAA,-0.129
AACTGCGT,0.127
CAACAATG,-0.155
ATGTTCCC,0.0055
AAGTTTAT,0.00659
GGGTACCA,-0.0522
GCCACGTA,-0.0941
GCAGCATA,-0.0821
CGGACTCC,0.158
AGTGTCAA,-0.185

# Set 3 — technique: RNA Bind-n-Seq; form: RNA; matrix: in vitro; tested at: not given; setting: RNA with constant flanks, ends assumed; relative to: input RNA pool; direction: higher = stronger binding
# Target: RING finger protein unkempt homolog, zinc fingers 1-6, GST-SBP tag (UNK, Homo sapiens, UniProt Q9C0B0, residues 30-357)
# Construct (chain): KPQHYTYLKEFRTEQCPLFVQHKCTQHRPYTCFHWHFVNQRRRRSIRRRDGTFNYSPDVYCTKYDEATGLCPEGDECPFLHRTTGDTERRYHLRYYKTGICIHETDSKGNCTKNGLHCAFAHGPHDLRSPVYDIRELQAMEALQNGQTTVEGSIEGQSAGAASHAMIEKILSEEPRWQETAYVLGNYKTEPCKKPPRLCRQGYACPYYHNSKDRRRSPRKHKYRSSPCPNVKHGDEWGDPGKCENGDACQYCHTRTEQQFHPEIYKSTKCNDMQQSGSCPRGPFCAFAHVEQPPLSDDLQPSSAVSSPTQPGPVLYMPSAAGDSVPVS
Oligonucleotide,bound/input enrichment
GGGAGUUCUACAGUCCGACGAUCUGUGUCUUACGUGCCACCACGGCGUUGUACCUGUAGGACUCUCAUUCGGGAUGAUUGGAACCGCUUCUGGAAUUUGUUCAAGUUUUGGGUAUGUUUAAUCUGUUAUGUACUAGUGUUCUGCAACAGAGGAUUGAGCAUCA,0.407 ratio
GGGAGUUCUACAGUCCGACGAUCCUCUAUUUUUUUACUAUGGCUGGCAGUGUAUGGUGGGUAAUUCUUACCAUCACAUGGUUUUCCGCAGCUGUGCCAAAGUGGGGUAGUGAAGCUAUUGAGAAGAAAGCAUUGCUGUUUCACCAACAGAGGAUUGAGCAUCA,0.202 ratio
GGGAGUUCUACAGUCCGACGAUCAACCCAUGGCUGCUUUGUGUCACCUCAGUGACUUACAGUCCCCCUUGGCAUUUAGUUGGUACCCGAGCCAGUCAUCCUUAACAAAUCUUUUCACAUUUUAUUUCUUUCACAUGUAGUCAUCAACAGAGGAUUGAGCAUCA,8.8 ratio
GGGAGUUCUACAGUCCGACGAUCACCAUGAAUGAUAUCGAUGCUUUUGAAUUUCAUGAAGCCUUCUCAGGCCAGAUUUCCGCUAACUUUAAAGCCAUGGAUUCUGAUUGGUUUGCACAAAACUACAUGGGUAGGAAAACCAAGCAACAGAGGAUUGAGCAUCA,0.109 ratio
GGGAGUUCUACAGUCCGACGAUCCUGACCCAUAAUAACGGAAAGUUUAACAAUGACUCACAUUCUCCUAAAGUUUCCAGCCAGAACCGGACACGCUCAUUUGGUCAUUUUCCCGGUCCAGAGUUCUUGGAUGUAGAGAAAACUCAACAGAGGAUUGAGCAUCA,0.347 ratio
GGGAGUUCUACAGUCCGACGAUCACCCUGGAAGAGGAGACCGUGAUGCUUGCAAUGACUCCAGAUGAUUUGCAGGAGAAGGAAGCCGCUUAUUGUUCUACCUACACCCACUGUGAGAUUCACCCAUCAAUGAUUCUUGGAGUCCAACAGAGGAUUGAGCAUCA,0.153 ratio
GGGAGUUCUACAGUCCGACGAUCUUUAUGAUAGUUUUGUUAGGUGACAGGACCAAAUGAAAAUAUUUUAUGUUUUCUCAUCACUUCCGAUUUUAUCAUUAUGUACAUUACUGGGUUUUUAGCAUUUCCUAAUGUGAAGUUUUACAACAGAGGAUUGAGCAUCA,1.67 ratio
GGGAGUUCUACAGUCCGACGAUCUGUAGUCAGUGUGGAAGAGCCUUCAGCCAGAAGCAAUACCUCAUUAAACACCAGAAUAUCCACCGUGGGAAGAAACCUUUUAAGUGUAAUGAGUGUGGUAAGGCUUUUAGCCAGAAAGAACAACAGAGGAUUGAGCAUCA,0.243 ratio
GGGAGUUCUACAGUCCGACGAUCAUGUUAAGCCAUUCUUGAUUGGACCUCAUAGCUUAUUUUAGUUAAUCUUUUUUUUGUCUUUCCGCCUUACCACCUUUUAAAAAAUUUGUUAUUCUCCAGAAACAGUAAAUAGGUGAGUAGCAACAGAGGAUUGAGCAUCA,119 ratio
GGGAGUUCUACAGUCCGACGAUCCAUGUCCAGCUUCUCUAGGGCGCCCCAGCAAUGGGCCACUUUUGCUCGAAUGUGGUAUCUCUCCGAUGGCAAAAUGCAGCCCCCUGGCAAACUUGCGGUUAUAGCAUCCAACAAACUGCACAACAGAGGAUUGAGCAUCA,0.142 ratio
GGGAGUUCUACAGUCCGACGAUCUUCUAUCGCGCCCUCUUGGCUGCUAGUUGUCGCGCUCUCCAUCUCACCAUGCUGUCUCCCGACUUUCCCGACGAUGUGCGGCGGAUGAACAAGAGGCAGCUGUACUACCAAGUCCUAAAUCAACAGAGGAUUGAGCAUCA,0.0875 ratio

# Set 4 — technique: DHFR PCA, deep sequencing; matrix: yeast; added: (+)-ABA 0 µM; relative to: wild-type fitted maximum; direction: higher = stronger binding
# Target: ABI1, truncated, D143A, DHFR fusion (Arabidopsis thaliana)
# Setting: methotrexate growth selection, single substitutions
# Parent: PYL1, truncated, DHFR fusion (Arabidopsis thaliana); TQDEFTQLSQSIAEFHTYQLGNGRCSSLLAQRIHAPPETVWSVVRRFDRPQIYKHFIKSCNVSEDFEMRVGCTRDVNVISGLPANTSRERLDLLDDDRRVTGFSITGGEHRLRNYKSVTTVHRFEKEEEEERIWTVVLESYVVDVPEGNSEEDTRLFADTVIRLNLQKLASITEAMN
Variant,relative binding score [%]
I12V,6.83
V44E,1.18
E125D,9.8
R74L,1.27
E128H,46.2
F56W,-0.638
N77G,14.9
E109F,-10.1
L20H,40.2
S117D,2.04
E127H,39
D92L,-1.2
Q51C,-2.06
N114L,0.87
S63R,15.9
P50I,-6.88
Q19D,43.7

# For quick reference, copied from above (set 3):
Oligonucleotide,bound/input enrichment
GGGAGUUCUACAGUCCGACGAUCAACCCAUGGCUGCUUUGUGUCACCUCAGUGACUUACAGUCCCCCUUGGCAUUUAGUUGGUACCCGAGCCAGUCAUCCUUAACAAAUCUUUUCACAUUUUAUUUCUUUCACAUGUAGUCAUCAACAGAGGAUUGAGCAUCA,8.8 ratio
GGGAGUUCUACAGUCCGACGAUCCUGACCCAUAAUAACGGAAAGUUUAACAAUGACUCACAUUCUCCUAAAGUUUCCAGCCAGAACCGGACACGCUCAUUUGGUCAUUUUCCCGGUCCAGAGUUCUUGGAUGUAGAGAAAACUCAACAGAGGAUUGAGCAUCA,0.347 ratio
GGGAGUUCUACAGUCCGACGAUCACCAUGAAUGAUAUCGAUGCUUUUGAAUUUCAUGAAGCCUUCUCAGGCCAGAUUUCCGCUAACUUUAAAGCCAUGGAUUCUGAUUGGUUUGCACAAAACUACAUGGGUAGGAAAACCAAGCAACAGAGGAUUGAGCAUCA,0.109 ratio
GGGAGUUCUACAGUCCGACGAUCUGUGUCUUACGUGCCACCACGGCGUUGUACCUGUAGGACUCUCAUUCGGGAUGAUUGGAACCGCUUCUGGAAUUUGUUCAAGUUUUGGGUAUGUUUAAUCUGUUAUGUACUAGUGUUCUGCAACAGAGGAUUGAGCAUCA,0.407 ratio
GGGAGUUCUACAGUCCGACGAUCAUGUUAAGCCAUUCUUGAUUGGACCUCAUAGCUUAUUUUAGUUAAUCUUUUUUUUGUCUUUCCGCCUUACCACCUUUUAAAAAAUUUGUUAUUCUCCAGAAACAGUAAAUAGGUGAGUAGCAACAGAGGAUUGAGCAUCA,119 ratio
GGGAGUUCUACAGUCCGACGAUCUUUAUGAUAGUUUUGUUAGGUGACAGGACCAAAUGAAAAUAUUUUAUGUUUUCUCAUCACUUCCGAUUUUAUCAUUAUGUACAUUACUGGGUUUUUAGCAUUUCCUAAUGUGAAGUUUUACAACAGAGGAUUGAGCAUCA,1.67 ratio
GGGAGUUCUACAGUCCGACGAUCUUCUAUCGCGCCCUCUUGGCUGCUAGUUGUCGCGCUCUCCAUCUCACCAUGCUGUCUCCCGACUUUCCCGACGAUGUGCGGCGGAUGAACAAGAGGCAGCUGUACUACCAAGUCCUAAAUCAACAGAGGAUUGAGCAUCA,0.0875 ratio
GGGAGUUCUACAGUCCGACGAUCCUCUAUUUUUUUACUAUGGCUGGCAGUGUAUGGUGGGUAAUUCUUACCAUCACAUGGUUUUCCGCAGCUGUGCCAAAGUGGGGUAGUGAAGCUAUUGAGAAGAAAGCAUUGCUGUUUCACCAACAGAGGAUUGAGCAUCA,0.202 ratio
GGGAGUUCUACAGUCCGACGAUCACCCUGGAAGAGGAGACCGUGAUGCUUGCAAUGACUCCAGAUGAUUUGCAGGAGAAGGAAGCCGCUUAUUGUUCUACCUACACCCACUGUGAGAUUCACCCAUCAAUGAUUCUUGGAGUCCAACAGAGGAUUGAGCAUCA,0.153 ratio
